Measurements collected from several papers.
Each line is one published result; not all experiments were run side by side. “And” joins repeats or separate records; there may be more than shown. Numbers after ± are the reported error. In brackets after ≈: the same amount, converted by molar mass.

SMILES	organism	test	system	setting	how to read	quantity	result
CC(=O)NC[C@H]1CN(c2ccc(N3CCOCC3)c(F)c2)C(=O)O1	Streptococcus pyogenes		40 clinical isolates			MIC50	1 µg/mL (≈ 2.96 µM)
CC1=NN(c2ccc(F)cc2)C(=O)C1=NNc1ccc(S(N)(=O)=O)cc1	Saccharomyces cerevisiae			200 µg/mL		glucose uptake	60%
c1cnc2c(c1)ccc1cccnc12	Taenia solium	trypan blue uptake	cysts	25 µg/mL		cysticidal efficacy	100%
CC1=NN(c2ccccn2)C(=O)C1=NNc1ccc(S(N)(=O)=O)cc1	Saccharomyces cerevisiae			100 µg/mL		glucose uptake	8.94%
N=C(N)c1ccc(OCc2ccc(-c3ccccc3)cc2COc2ccc(C(=N)N)cc2)cc1	Escherichia coli	checkerboard	ATCC 25922	unit not given, added: rifampicin	lower = stronger synergy	FICI	0.031
CC1=NN(c2ccc(Cl)cc2)C(=O)C1=NNc1ccc(S(N)(=O)=O)cc1	Saccharomyces cerevisiae			50 µg/mL		glucose uptake	28.8%
CCCCCOc1ccc(-c2ccc(-c3ccc(C(=O)N[C@H]4C[C@@H](O)[C@@H](OCC[N+](C)(C)C)NC(=O)[C@@H]5[C@@H](O)[C@@H](C)CN5C(=O)[C@H]([C@@H](C)O)NC(=O)[C@H]([C@H](O)[C@@H](O)c5ccc(O)cc5)NC(=O)[C@@H]5C[C@@H](O)CN5C(=O)[C@H]([C@@H](C)O)NC4=O)cc3)cc2)cc1	Candida glabrata		35315, neutropenic mouse, disseminated candidiasis	dose not given, average 24 h AUC over 7 days		free AUC/MIC for 1 log kill	1.4
CC(C)[C@@H]1NC(=O)[C@@H](CCCN)NC(=O)[C@H]([C@@H](C)O)NC(=O)[C@@H](CCCN)NC(=O)[C@H](Cc2ccccc2)NC(=O)[C@@H](Cc2ccccc2)NC1=O	Naegleria fowleri			trophozoites		IC90	> 16 µg/mL
Cc1cc(Nc2ccc(S(F)(F)(F)(F)F)cc2)n2nc(C(C)(F)F)nc2n1	Plasmodium falciparum	microscopy	human malaria patients	400 mg, median		lag phase (Tlag)	4.01 h
Cc1ccc(NC(=O)N2Cc3[nH]cnc3C[C@H]2c2nc(-c3ccc4c(c3)OCO4)no2)cc1	Caenorhabditis elegans		N2	25 µM		median lifespan	21 days
CC1=NOC(=O)C1=NNc1ccc(S(N)(=O)=O)cc1	Saccharomyces cerevisiae			500 µg/mL		glucose uptake	29%
CN[C@H](CC(C)C)C(=O)N[C@H]1C(=O)N[C@@H](CC(N)=O)C(=O)N[C@H]2C(=O)N[C@H]3C(=O)N[C@H](C(=O)N[C@H](C(=O)O)c4cc(O)cc(O)c4-c4cc3ccc4O)[C@H](O)c3ccc(c(Cl)c3)Oc3cc2cc(c3O[C@@H]2O[C@H](CO)[C@@H](O)[C@H](O)[C@H]2O[C@H]2C[C@](C)(N)[C@H](O)[C@H](C)O2)Oc2ccc(cc2Cl)[C@H]1O	Staphylococcus aureus		USA300 LAC, mice, meningitis, brain			bacterial load	6.96 log CFU/brain and 7.38 log CFU/brain and 7.19 log CFU/brain and 7.4 log CFU/brain and 7.16 log CFU/brain and 7.72 log CFU/brain
CC(C)n1ncc2c(C(=O)NCC3(C)CNC3)cc(C3CC3)nc21	Enterovirus D68	cytopathic effect	RD, US/IL/14-18952	5000 nM		cell protection	100% and 102% and 99.5%
CC1=NN(c2cc(Cl)ccc2Cl)C(=O)C1=NNc1ccc(S(N)(=O)=O)cc1	Saccharomyces cerevisiae			50 µg/mL		glucose uptake	46%
Cc1cc(OC(C)C)ccc1C(=O)C(C)(C)NC(=O)c1sccc1C	Alternaria brassicicola	mycelial growth	PSA medium	20 °C		EC50	0.51 µg/mL (≈ 1.42 µM)
CC1(C)S[C@@H]2[C@H](NC(=O)[C@H](N)c3ccccc3)C(=O)N2[C@H]1C(=O)O	Pseudomonas aeruginosa		clinical isolate RKI-No_579/15			MIC	> 16 µg/mL
O=C1C=C2NCCc3c[nH]c(c32)C1=O	Saccharomyces cerevisiae	cell growth, liquid culture	BY4741	100 µM, 24 h		inhibition	0.7%

SMILES	organism	test	system	setting	how to read	quantity	result
COC(=O)[C@H](Cc1c[nH]c2ccccc12)NCc1cc2ccccc2nc1OC	Pseudomonas aeruginosa			128 µg/mL, without pentamidine	baseline: control	growth	88.4%
CN[C@H](CC(C)C)C(=O)N[C@H]1C(=O)N[C@@H](CC(N)=O)C(=O)N[C@H]2C(=O)N[C@H]3C(=O)N[C@H](C(=O)N[C@H](C(=O)O)c4cc(O)cc(O)c4-c4cc3ccc4O)[C@H](O)c3ccc(c(Cl)c3)Oc3cc2cc(c3O[C@@H]2O[C@H](CO)[C@@H](O)[C@H](O)[C@H]2O[C@H]2C[C@](C)(N)[C@H](O)[C@H](C)O2)Oc2ccc(cc2Cl)[C@H]1O	Streptococcus pyogenes		10 isolates	pH 8.5		MIC50	1 µg/mL (≈ 0.69 µM)
N=C(N)c1ccc(OCCCCCOc2ccc(C(=N)N)cc2)cc1	Escherichia coli		BW25113	concentration not given, lowest-FICI combination, added: rifampicin		MIC in combination	50 µg/mL
CCc1c2c(nc3ccc(OC(=O)N4CCC(N5CCCCC5)CC4)cc13)-c1cc3c(c(=O)n1C2)COC(=O)[C@]3(O)CC	Taenia solium	trypan blue uptake	viable cysts in vitro	50 µg/mL		cysticidal efficacy	20%
CC1=NN(c2cccc([N+](=O)[O-])c2)C(=O)C1=NNc1ccc(S(N)(=O)=O)cc1	Saccharomyces cerevisiae			100 µg/mL		glucose uptake	28.6%
CC(C)[C@@H]1NC(=O)[C@@H](CCN)NC(=O)[C@H]([C@@H](C)O)NC(=O)[C@@H](CCCN)NC(=O)[C@H](Cc2ccccc2)NC(=O)[C@@H](Cc2ccccc2)NC1=O	Naegleria fowleri			trophozoites		IC50	> 16 µg/mL
CC[C@H]1OC(=O)[C@H](C)[C@@H](O[C@H]2C[C@@](C)(OC)[C@@H](O)[C@H](C)O2)[C@H](C)[C@@H](O[C@@H]2O[C@H](C)C[C@H](N(C)C)[C@H]2O)[C@](C)(O)C[C@@H](C)CN(C)[C@H](C)[C@@H](O)[C@]1(C)O	Neisseria gonorrhoeae	broth microdilution	WHO K	1.5 h		MIC	1 µg/mL (≈ 1.34 µM)
CC(=O)ON=C1C=CC(=C(C#N)c2ccccc2)C=C1	Candidozyma auris		ATCC MYA-5001	concentration not given		antifungal activity	active
CC1(C)S[C@@H]2[C@H](NC(=O)Cc3ccccc3)C(=O)N2[C@H]1C(=O)O	Neisseria gonorrhoeae	broth microdilution	WHO F	1.5 h		MIC	2 µg/mL (≈ 5.98 µM)
Nc1nc(-c2ccccc2)nc2[nH]nc(Nc3ccc(C(F)(F)F)cc3)c12	coxsackievirus B3		31-1-93, NMRI mice, CVB3 chronic myocarditis	oral, 100 mg/kg twice daily, day 11, dosed days 0 to 6, score scale 0 to 7	direction not given	clinical score	0.1
N=C(N)c1ccc(OCCC(CCOc2ccc(C(=N)N)cc2)c2ccccc2)cc1 (stereo not shown)	Escherichia coli	checkerboard	mcr-3 polymyxin-resistant	unit not given, added: rifampicin	lower = stronger synergy	FICI	≤ 0.063
CC[C@H]1OC(=O)[C@H](C)[C@@H](O[C@H]2C[C@@](C)(OC)[C@@H](O)[C@H](C)O2)[C@H](C)[C@@H](O[C@@H]2O[C@H](C)C[C@H](N(C)C)[C@H]2O)[C@](C)(O)C[C@@H](C)/C(=N\OCOCCOC)[C@H](C)[C@@H](O)[C@]1(C)O	Streptococcus viridans		10 clinical isolates			MIC50	0.25 µg/mL (≈ 0.299 µM)
CC1=NN(c2ccc(C)cc2)C(=O)C1=NNc1ccc(S(N)(=O)=O)cc1	Saccharomyces cerevisiae			10 µg/mL		glucose uptake	39.599 ± 0.000981%
OC(Cn1cncn1)(Cn1cncn1)c1ccc(F)cc1F	Candidozyma auris	inhibitor	277	24 h		MIC	128 µg/mL (≈ 418 µM)
COc1ccc(C[C@H](NC(=O)[C@H](C)NC(=O)CN2CCOCC2)C(=O)N[C@@H](Cc2ccccc2)C(=O)C2(C)CO2)cc1 (stereo in doubt)	Plasmodium falciparum		3D7	3 x IC50, treatment from late stage		new ring formation	3 to 5%
CO/N=C(\C(=O)N[C@@H]1C(=O)N2C(C(=O)O)=C(CSc3nc(=O)c(O)nn3C)CS[C@H]12)c1csc(N)n1	Neisseria gonorrhoeae	broth microdilution	WHO K	1.5 h		MIC	1 µg/mL (≈ 1.8 µM)
CC1=NCCNC(=O)C1=NNc1ccc(S(N)(=O)=O)cc1	Saccharomyces cerevisiae			200 µg/mL		glucose uptake	28.3%
